Results pooled from the literature.
Protocols differ between the studies behind these lines.
Cell line: Vero

SMILES	assay	conditions	CC50
COc1ccc(-n2nc3c(=O)[nH]nc(C)c3c2C)cc1	cell growth or viability		115 µM
Cc1cc(NCC(=O)C(C)C)c2nc(N3CCOC[C@H]3C)cc(=O)n2c1	cell growth or viability, CCK-8	48 h	195 µM
CCCCCCCCC1=C(CCCCCCCC(=O)O)C1	cell growth or viability, MTS	24 h	215 µM
CCN(CC)CCNC(=O)C(Cc1ccccc1)Nc1ccnc2cc(Cl)ccc12 (stereo not shown)	cell growth or viability, MTT	48 h	118 µM
CCCCCCCCC1=C(CCCCCCCC(=O)OC)C1	cell growth or viability, MTS	24 h	> 1000 µM
CN[C@H](C)C(=O)N[C@H](C(=O)N1CC[C@@H]2Oc3ccc(OC)c(c3)/C=C\NC(=O)[C@H](Cc3ccccc3)NC(=O)[C@H]21)C(C)C	cell growth or viability, MTT	48 h	165 µM
CCCCSc1ccc(SCCCC)c(O)c(=O)c1O	cell growth or viability, MTS	24 h	87.2 µM
Oc1cc(O)cc(Oc2c(O)cc(O)c3c2Oc2c(O)cc(Oc4c(O)cc(O)cc4O)cc2O3)c1	cell growth or viability, MTT	72 h	446 µM
O=c1c(O)cccc(SCc2ccccc2)c1O	cell growth or viability, MTS	24 h	> 100 µM
COc1ccc(-n2nc3c(=O)n(Cc4cccc(NC(=O)c5ccccc5)c4)nc(C)c3c2C)cc1	cell growth or viability		> 1000 µM
CCCCNC(=O)CNC(=O)C=CC(Cc1ccccc1)Nc1ccnc2cc(Cl)ccc12 (stereo not shown)	cell growth or viability, MTT	48 h	41.1 µM
CCOC(=O)CNC(=O)CN1C(=O)S/C(=C\c2ccc(OC)c(O)c2)C1=O	cell growth or viability, resazurin	72 h	> 100 µM
CCCCCCCCC1=C(CCCCCCCCC(=O)OC)C1	cell growth or viability, MTS	24 h	> 1000 µM
COc1ccc(-n2nc3c(=O)n(Cc4cccc(NC(C)=O)c4)nc(C)c3c2C)cc1	cell growth or viability		245 µM
CCCCCCSc1ccc(SCCCCCC)c(O)c(=O)c1O	cell growth or viability, MTS	24 h	> 100 µM
CCOC(=O)C(C)NC(=O)CN1C(=O)N/C(=C\c2ccc(C)cc2)C1=O (stereo not shown)	cell growth or viability, resazurin	72 h	> 100 µM

SMILES	assay	conditions	CC50
COc1ccc(Nc2c(C#N)cnc3ccc(Cl)cc23)cc1	resazurin	72 h, 10% FBS, with: 30 µM heme	> 100 µM
O=C(C=CC(Cc1ccccc1)Nc1ccnc2cc(Cl)ccc12)NCC(=O)N1CCNCC1 (stereo not shown)	cell growth or viability, MTT	48 h	144 µM
O=c1nc(N2CCC(Oc3ccccc3F)CC2)sc2c([N+](=O)[O-])cc(C(F)(F)F)cc12	cell growth or viability		> 10 µM
CCOC(=O)C(CC)NC(=O)CN1C(=O)S/C(=C\c2ccc(C)cc2)C1=O (stereo not shown)	cell growth or viability, resazurin	72 h	> 100 µM
CCN(CC)CCNC(=O)C=CC(Cc1ccccc1)Nc1ccnc2cc(Cl)ccc12 (stereo not shown)	cell growth or viability, MTT	48 h	45 µM
CCOC(=O)C(CC)N1CCN(c2nc(=O)c3cc(C(F)(F)F)cc([N+](=O)[O-])c3s2)CC1 (stereo not shown)	cell growth or viability		> 10 µM
CN(C)CCNC(=O)/C=C/[C@H](Cc1ccccc1)Nc1ccnc2cc(Cl)ccc12	cell growth or viability, MTS	48 h	48.8 µM
CC(=O)Oc1cc2c(cc1C(C)C)CC[C@H]1[C@](C)(CN3C(=O)c4c(Cl)c(Cl)c(Cl)c(Cl)c4C3=O)CCC[C@]21C	cell growth or viability, MTT	96 h	34 µM
CCOC(=O)C(C)NC(=O)CN1C(=O)S/C(=C\c2ccc(F)cc2)C1=O (stereo not shown)	cell growth or viability, resazurin	72 h	> 100 µM
O=c1c(-c2nc3ccccc3s2)cc2c(n1NS(=O)(=O)c1ccc(Cl)cc1)CCCCCC2	cell growth or viability, trypan blue		320 µg/mL
CC[C@H](C)[C@H](NC(=O)[C@@H](C)NC)C(=O)N1CC[C@@H]2Oc3ccc(OC)c(c3)/C=C\NC(=O)[C@H](C(C)C)NC(=O)[C@H]21	cell growth or viability, MTT	48 h	> 400 µM
CCOC(=O)C(NC(=O)CN1C(=O)N/C(=C\c2ccc3c(c2)OCO3)C1=O)C(C)C (stereo not shown)	cell growth or viability, resazurin	72 h	> 100 µM
O=c1nc(N2CCC(Oc3ccccc3Cl)CC2)sc2c([N+](=O)[O-])cc(C(F)(F)F)cc12	cell growth or viability		> 10 µM
O=C(C=CC(Cc1ccccc1)Nc1ccnc2cc(Cl)ccc12)NCCN1CCCCC1 (stereo not shown)	cell growth or viability, MTT	48 h	39 µM
COC(=O)c1cccc(-n2nc(C)c3c(C)n(-c4ccc(OC)cc4)nc3c2=O)c1	cell growth or viability		368 µM

Excerpt of the above:
SMILES	assay	conditions	CC50
COC(=O)c1cccc(-n2nc(C)c3c(C)n(-c4ccc(OC)cc4)nc3c2=O)c1	cell growth or viability		368 µM
O=C(C=CC(Cc1ccccc1)Nc1ccnc2cc(Cl)ccc12)NCC(=O)N1CCNCC1 (stereo not shown)	cell growth or viability, MTT	48 h	144 µM
COc1ccc(Nc2c(C#N)cnc3ccc(Cl)cc23)cc1	resazurin	72 h, 10% FBS, with: 30 µM heme	> 100 µM
CCCCCCSc1ccc(SCCCCCC)c(O)c(=O)c1O	cell growth or viability, MTS	24 h	> 100 µM
CCOC(=O)C(C)NC(=O)CN1C(=O)N/C(=C\c2ccc(C)cc2)C1=O (stereo not shown)	cell growth or viability, resazurin	72 h	> 100 µM
